# Measured values of several laboratories.
# Lines come from different studies, so protocols differ.
# Technique: steady-state kinetics
# B1: enzyme D236N (Acetivibrio thermocellus, UniProt A3DJ38); chain MKLTIPELSLVVLIGSSGSGKSTFAKKHFKPTEVISSDFCRGLVSDDENDQTVTGAAFDVLHYIVSKRLQLGKLTVVDATNVQESARKPLIEIAKDYHCFPVAVVFNLPEKVCQERNKNRTDRQVEEYVIRKHTQQLKKSIKGLQREGFRYVYILNSPEEVEEVVFERQPLWNNKKDEHGPFDIIGDIHGCYDELKMLLEKLGYLIEEVEGGVGSGKYRVTHPEGRKVLFLGDLVNRGPKITEVLKLVMGMVKSGIALCVPGNHDVKLLRKLNGRDVQITHGLDRTLEQLAKEPQEFIEEVKAFIDGLVSHYVLDDGKLVVAHAGMKEEFQGRGSGKVREFALYGETTGETDEYGLPVRYDWASDYRGKALVVYGHTPQAEVLKVNNTINIDTGCVFGGKLTAYRYPEREIVDVKALKTYYEPAKPFLPKEDMAERFEARTDNDILDINDVLGKKIITTRLMSSITIHEENSIAALEVMSRFAADPHWLIYLPPTMSPCETSKKEGMLEHPIEAFEYFRTRGVGKVVCEQKHMGSRAVVIVCKDSQVAEKRFGVLDGTAGICYTRTGRHFFDDMQLEAELIDRVRKVLDKSGFWGDFNTDWVCLDCELMPWSAKAQKLLEEQYSAVGISGRVVLDEAVKLLKQASLNKTVSFDVSRQTSGKNADINELLQRFTERSEMMQKYVEAYRKYCWPVNSIDDLKLAPFHILATEGKVHSDKNHIWHMDTIAKYCTQDDSLIMATNHILVDVTDAESVDKGIKWWEDLTASGGEGMVVKPYDFIVKNGRELLQPAVKCRGREYLRIIYGPEYTMDENIERLRNRAVGKKRSLALREFSLGMEALERFVRNEPLYRVHECVFGVLALESEPVDPRL
# B2: enzyme N488A (Limosilactobacillus reuteri, UniProt Q8GP32); chain SADTNIENNDSSTVQVTTGDNDIAVKSVTLGSGQVSAASDTTIRTSANANSASSAANTQNSNSQVASSAAITSSTSSAASSNNTDSKAAQENTNTAKNDDTQKAAPANESSEAKNEPAVNVNDSSAAKNDDQQSSKKNTTAKLNKDAENVVKKAGIDPNSLTDDQIKALNKMNFSKAAKSGTQMTYNDFQKIADTLIKQDGRYTVPFFKASEIKNMPAATTKDAQTNTIEPLDVWDSWPVQDVRTGQVANWNGYQLVIAMMGIPNQNDNHIYLLYNKYGDNELSHWKNVGPIFGYNSTAVSQEWSGSAVLNSDNSIQLFYTRVDTSDNNTNHQKIASATLYLTDNNGNVSLAQVANDHIVFEGDGYYYQTYDQWKATNKGADNIAMRDAHVIEDDNGDRYLVFEASTGLENYQGEDQIYNWLNYGGDDAFNIKSLFRILSNDDIKSRATWAAAAIGILKLNKDEKNPKVAELYSPLISAPMVSDEIERPNVVKLGNKYYLFAATRLNRGSNDDAWMNANYAVGDNVAMVGYVADSLTGSYKPLNDSGVVLTASVPANWRTATYSYYAVPVAGKDDQVLVTSYMTNRNGVAGKGMDSTWAPSFLLQINPDNTTTVLAKMTNQGDWIWDDSSENLDMIGDLDSAALPGERDKPVDWDLIGYGLKP
# B3: protein (Prochlorococcus marinus, UniProt Q7V6D4); chain MPTLEMPVAAVLDSTVGSSEALPDFTSDRYKDAYSRINAIVIEGEQEAHDNYIAIGTLLPDHVEELKRLAKMEMRHKKGFTACGKNLGVEADMDFAREFFAPLRDNFQTALGQGKTPTCLLIQALLIEAFAISAYHTYIPVSDPFARKITEGVVKDEYTHLNYGEAWLKANLESCREELLEANRENLPLIRRMLDQVAGDAAVLQMDKEDLIEDFLIAYQESLTEIGFNTREITRMAAAALVS
# B4: SQOR (Homo sapiens, UniProt Q9Y6N5); chain NHYEVLVLGGGSGGITMAARMKRKVGAENVAIVEPSERHFYQPIWTLVGAGAKQLSSSGRPTASVIPSGVEWIKARVTELNPDKNCIHTDDDEKISYRYLIIALGIQLDYEKIKGLPEGFAHPKIGSNYSVKTVEKTWKALQDFKEGNAIFTFPNTPVKCAGAPQKIMYLSEAYFRKTGKRSKANIIFNTSLGAIFGVKKYADALQEIIQERNLTVNYKKNLIEVRADKQEAVFENLDKPGETQVISYEMLHVTPPMSPPDVLKTSPVADAAGWVDVDKETLQHRRYPNVFGIGDCTNLPTSKTAAAVAAQSGILDRTISVIMKNQTPTKKYDGYTSCPLVTGYNRVILAEFDYKAEPLETFPFDQSKERLSMYLMKADLMPFLYWNMMLRGYWGGPAFLRKLFHLGMS
# B5: enzyme (Thermotoga maritima, UniProt Q9WZV7); chain VENVTESKELERLKRIDRMKTEFIANISHELRTPLTAIKAYAETIYNSLGELDLSTLKEFLEVIIDQSNHLENLLNELLDFSRLERKSLQINREKVDLCDLVESAVNAIKEFASSHNVNVLFESNVPCPVEAYIDPTRIRQVLLNLLNNGVKYSKKDAPDKYVKVILDEKDGGVLIIVEDNGIGIPDHAKDRIFEQFYRVDSSLTYEVPGTGLGLAITKEIVELHGGRIWVESEVGKGSRFFVWIPKDRAGEDNRQDN
# B6: EutE V13D (Escherichia coli, UniProt P77445); chain MNQQDIEQVVKADLLKMQSSDTPSAAVHEMGVFASLDDAVAAAKVAQQGLKSVAMRQLAIAAIREAGEKHARDLAELAVSETGMGRVEDKFAKNVAQARGTPGVECLSPQVLTGDNGLTLIENAPWGVVASVTPSTNPAATVINNAISLIAAGNSVIFAPHPAAKKVSQRAITLLNQAIVAAGGPENLLVTVANPDIETAQRLFKFPGIGLLVVTGGEAVVEAARKHTNKRLIAAGAGNPPVVVDETADLARAAQSIVKGASFDNNIICADEKVLIVVDSVADELMRLMEGQHAVKLTAEQAQQLQPVLLKNIDERGKGTVSRDWVGRDAGKIAAAIGLKVPQETRLLFVETTAEHPFAVTELMMPVLPVVRVANVADAIALAVKLEGGCHHTAAMHSRNIENMNQMANAIDTSIFVKNGPCIAGLGLGGEGWTTMTITTPTGEGVTSARTFVRLRRCVLVDAFRIV
# B7: enzyme (Bacillus pumilus, UniProt A8FFI9); chain EARSIAWSVDEFFKNREGTFVIQEVKEKSPWVYNKKRAKERFAPQSTFKVANALIGLQTGAVRDEYDIKYWDGVKREIDNWNRDHTLGSGMRDSVVWYYQAMARDIGEERMNHWVKAIHYGNKDISGGIDQFWLSSTLRISPIEQVRFLKQLYEETLPFDLKNMRTVKRMMVQEEEKHATLYGKTGSGSDIGWYVGFIKHEHKTYILATNIKGTGIEAKDITYRILKKYHLMEASV
# B8: protein L361A (Streptomyces toyocaensis, UniProt Q8KLK7); chain MTTVLPPLEDTDGLWAALTEAAASVEKLLATLPEHGARSSAERAEIAAAHDAARALRVRFLDTHADAVYDRLTDHRRVHLRLAELVEAAATAFPGLVPTQQQLAVERSLPQAAKEGHEIDQGIFLRAVLRSPLAGPHLLDAMLRPTPRALELLPEFVRTGEVEMEAVHLERRDGVARLTMCRDDRLNAEDGQQVDDMETAVDLALLDPGVRVGLLRGGVMSHPRYRGKRVFSAGINLKYLSQGGISLVDFLMRRELGYIHKLVRGVLTNDDRPGWWHSPRIEKPWVAAVDGFAIGGGAQLLLVFDRVLASSDAYFSLPAAKEGIIPGAANLRLGRFAGPRVSRQVILEGRRIWAKEPEARALVDEVVEPDELDAAIERSLTRLDGDAVLANRRMLNLADESPDGFRAYMAEFALMQALRLYGHDVIDKVGRFGGRPPA
# B9: enzyme E217L/L163H/N249W (Thermobifida fusca, UniProt Q47RK4); chain MTDVYILDAVRTPFGRYGGALSGIRPDDLAAHVLRALAERSPGLDPAAVDDVFFGDANGAGEDNRNVARMAALLAGWPTSVPGVTLNRLCGSGMESVIAANRAIAVGDASLAVAGGVESMSRAPWVLPKPAQGFPTGHETLYSTTLGWRMVNPAMPEQWTVSHGESTEQVAATYGISRAEQDAFALRSHERAARAWAEGVFDAEITQIPGAELERDLSIRETSAEKLAALKPAFRPDGTITAGNASPLWDGAAALLIGDAAAAERVGREPLARIVSRGVAAVDPDVFGIGPVQAAEIALRRAGIGWDDLSVVELNEAFAAQSLACLKLWPDLDPEIVNPNGGAIAIGHPLGASGARIVGTLAHELHRRGGGWGLAAICIGVGQGLAVVLHR
# B10: SLC10A2 (Homo sapiens, UniProt Q12908); chain MNDPNSCVDNATVCSGASCVVPESNFNNILSVVLSTVLTILLALVMFSMGCNVEIKKFLGHIKRPWGICVGFLCQFGIMPLTGFILSVAFDILPLQAVVVLIIGCCPGGTASNILAYWVDGDMDLSVSMTTCSTLLALGMMPLCLLIYTKMWVDSGSIVIPYDNIGTSLVSLVVPVSIGMFVNHKWPQKAKIILKIGSIAGAILIVLIAVVGGILYQSAWIIAPKLWIIGTIFPVAGYSLGFLLARIAGLPWYRCRTVAFETGMQNTQLCSTIVQLSFTPEELNVVFTFPLIYSIFQLAFAAIFLGFYVAYKKCHGKNKAEIPESKENGTEPESSFYKANGGFQPDEK
# UniProt Q99042, sequence (whole entry, looked up): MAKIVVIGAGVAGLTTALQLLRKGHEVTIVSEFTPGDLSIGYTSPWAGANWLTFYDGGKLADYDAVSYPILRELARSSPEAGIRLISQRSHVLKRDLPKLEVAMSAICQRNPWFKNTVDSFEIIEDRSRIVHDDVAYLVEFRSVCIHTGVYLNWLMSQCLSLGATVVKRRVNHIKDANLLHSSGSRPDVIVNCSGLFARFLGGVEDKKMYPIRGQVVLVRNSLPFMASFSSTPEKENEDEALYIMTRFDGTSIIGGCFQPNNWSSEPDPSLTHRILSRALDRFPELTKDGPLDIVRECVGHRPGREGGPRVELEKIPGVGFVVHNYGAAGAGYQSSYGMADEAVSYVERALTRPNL
# UniProt F4I907, sequence (whole entry, looked up): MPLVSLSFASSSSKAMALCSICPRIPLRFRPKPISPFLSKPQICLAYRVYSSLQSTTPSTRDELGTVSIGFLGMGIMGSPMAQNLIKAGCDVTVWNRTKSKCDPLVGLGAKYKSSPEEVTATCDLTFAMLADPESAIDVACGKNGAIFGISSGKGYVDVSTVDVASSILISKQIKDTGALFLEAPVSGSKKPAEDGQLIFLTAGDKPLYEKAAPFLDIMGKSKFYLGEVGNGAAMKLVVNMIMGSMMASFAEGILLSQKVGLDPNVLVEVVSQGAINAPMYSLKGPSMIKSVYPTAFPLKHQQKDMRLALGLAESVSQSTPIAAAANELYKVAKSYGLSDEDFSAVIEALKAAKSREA
# UniProt P22303, sequence (whole entry, looked up): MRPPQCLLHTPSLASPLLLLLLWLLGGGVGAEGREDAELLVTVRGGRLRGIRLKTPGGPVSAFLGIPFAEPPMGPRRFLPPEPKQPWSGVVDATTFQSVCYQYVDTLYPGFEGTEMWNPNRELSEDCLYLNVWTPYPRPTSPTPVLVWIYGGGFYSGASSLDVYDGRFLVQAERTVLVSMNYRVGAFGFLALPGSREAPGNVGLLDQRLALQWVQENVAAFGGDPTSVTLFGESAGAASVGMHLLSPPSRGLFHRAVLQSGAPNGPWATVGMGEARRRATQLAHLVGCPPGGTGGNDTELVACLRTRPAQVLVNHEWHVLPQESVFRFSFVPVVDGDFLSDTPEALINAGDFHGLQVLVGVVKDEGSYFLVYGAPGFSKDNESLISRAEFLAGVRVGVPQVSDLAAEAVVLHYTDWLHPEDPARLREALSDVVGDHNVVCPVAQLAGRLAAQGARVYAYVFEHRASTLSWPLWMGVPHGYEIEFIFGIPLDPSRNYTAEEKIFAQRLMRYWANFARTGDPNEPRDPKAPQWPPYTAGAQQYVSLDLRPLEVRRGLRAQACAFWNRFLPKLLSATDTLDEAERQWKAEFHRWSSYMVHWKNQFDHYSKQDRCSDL
Substance,substrate,medium,pH,temperature,setting,together with,Km
B1 (enzyme D236N),Nc1ncnc2c1ncn2[C@@H]1O[C@H](CO)[C@H]2OP(=O)(O)O[C@H]21,,pH 7.5,45 °C,,,6600 µM
B2 (enzyme N488A),OC[C@H]1O[C@@](CO)(O[C@H]2O[C@H](CO)[C@@H](O)[C@H](O)[C@H]2O)[C@@H](O)[C@@H]1O,,pH 5.5,50 °C,apparent,,23000 µM
B3 (protein),CCCC=O,,pH 7.2,37 °C,"apparent, micro-aerobic",,10100 µM
"lip (Burkholderia cepacia, UniProt P22088)",CCCCCCCCCCCCCCCC(=O)Oc1ccc([N+](=O)[O-])cc1,,pH 7,60 °C,,,2070 µM
"ACHE (Homo sapiens, UniProt P22303)",CC(=O)SCC[N+](C)(C)C,,pH 7.4,,,,2000 µM
"nitrilase (Rhodococcus rhodochrous, UniProt A4LA85)",N#CCCCCC#N,,pH 7.5,25 °C,,,933 µM
"DAO1 (Trigonopsis variabilis, UniProt Q99042)",O=C1C(Cl)=CC(=Nc2ccc(O)cc2)C=C1Cl,,pH 8,22 °C,"varied electron acceptor, apparent",D-methionine 200 mM,31 µM
B4 (SQOR),CS,nanodiscs,pH 7.4,25 °C,,MeSH,256 µM
B5 (enzyme),C#CCSP(=O)(O)OP(=O)(O)OP(=O)(O)OC[C@H]1O[C@@H](n2cnc3c(N)ncnc32)[C@H](O)[C@@H]1O,,,,apparent,,29 µM
B6 (EutE V13D),CC=O,lysate,,,not purified,"CoA, NAD+",1150 µM
"enzyme (Campylobacter jejuni, UniProt Q0P9V0)",N=C(N)NCCCCN,,pH 7,37 °C,,,70 µM
"GLYR2 (Arabidopsis thaliana, UniProt F4I907)",NC(=O)C1=CN([C@@H]2O[C@H](COP(=O)(O)OP(=O)(O)OC[C@H]3O[C@@H](n4cnc5c(N)ncnc54)[C@H](OP(=O)(O)O)[C@@H]3O)[C@@H](O)[C@H]2O)C=CC1,,pH 7.6,30 °C,cofactor varied,,1.4 µM
B7 (enzyme),[H][C@]12SCC(COC(C)=O)=C(C(=O)O)N1C(=O)[C@H]2NC(=O)CCC[C@@H](N)C(=O)O,,pH 7,,,,200 µM
B8 (protein L361A),CC(C)(COP(=O)(O)OP(=O)(O)OC[C@H]1O[C@@H](n2cnc3c(N)ncnc32)[C@H](O)[C@@H]1OP(=O)(O)O)[C@@H](O)C(=O)NCCC(=O)NCCSC(=O)Cc1cc(O)cc(O)c1,,pH 7.5,24 °C,,O2,4.4 µM
B9 (enzyme E217L/L163H/N249W),CC(C)(COP(=O)(O)OP(=O)(O)OC[C@H]1O[C@@H](n2cnc3c(N)ncnc32)[C@H](O)[C@@H]1OP(=O)(O)O)[C@@H](O)C(=O)NCCC(=O)NCCSC(=O)CCC(=O)O,,pH 7.4,37 °C,,,590 µM
B10 (SLC10A2),C[C@H](CCC(=O)NCCS(=O)(=O)O)[C@H]1CC[C@H]2[C@@H]3[C@H](O)C[C@@H]4C[C@H](O)CC[C@]4(C)[C@H]3C[C@H](O)[C@]12C,,pH 6.8,37 °C,not purified,,4.84 µM

# For quick reference, copied from above:
Substance,substrate,medium,pH,temperature,setting,together with,Km
"lip (Burkholderia cepacia, UniProt P22088)",CCCCCCCCCCCCCCCC(=O)Oc1ccc([N+](=O)[O-])cc1,,pH 7,60 °C,,,2070 µM
"ACHE (Homo sapiens, UniProt P22303)",CC(=O)SCC[N+](C)(C)C,,pH 7.4,,,,2000 µM
